Assay results pooled from the literature.
Numbered parts are unrelated; each lists some results of a single study. Substitutions count along the parent as printed.

Set 1 — target: CCNB2, cyclin fold, Cln2 fusion (human); technique: yeast growth competition, sequencing; matrix: yeast; setting: weak parent motif; reference: not given; reading: higher = stronger binding
Starting sequence: RRM2 docking peptide (human); SKTARRIFQEPTE; partner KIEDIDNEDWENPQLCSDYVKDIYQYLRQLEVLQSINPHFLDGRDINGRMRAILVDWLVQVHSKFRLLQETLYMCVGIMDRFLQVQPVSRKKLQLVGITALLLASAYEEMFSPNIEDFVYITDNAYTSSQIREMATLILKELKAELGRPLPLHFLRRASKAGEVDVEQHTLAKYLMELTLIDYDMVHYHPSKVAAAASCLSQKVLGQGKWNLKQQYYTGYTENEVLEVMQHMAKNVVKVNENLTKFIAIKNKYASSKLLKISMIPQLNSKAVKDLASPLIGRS
Variant	normalised enrichment score
S1A	0.452
T12A	0.377
F8A	0.705
P11A	0.108
K2A	0.145
R5A	0.0799

Set 2 — technique: protein-binding microarray; form: double-stranded DNA, one strand shown; matrix: in vitro; concentration: 2200 nM top; setting: 60-bp whole probe; together with: salmon DNA 0.4 mg/ml; reference: random background probes; reading: higher = stronger binding; constant ends, left off below: GCCTAGCAC … GTCTTGATTCGCTTGACGCTGCTG
Target: Interferon regulatory factor 7, full length, phosphomimetic (IRF7, Homo sapiens, UniProt Q92985, residues 1-503, S471D/S472D/S475D/S476D/S477D/S483D/S484D/S487D)
Target sequence (chain): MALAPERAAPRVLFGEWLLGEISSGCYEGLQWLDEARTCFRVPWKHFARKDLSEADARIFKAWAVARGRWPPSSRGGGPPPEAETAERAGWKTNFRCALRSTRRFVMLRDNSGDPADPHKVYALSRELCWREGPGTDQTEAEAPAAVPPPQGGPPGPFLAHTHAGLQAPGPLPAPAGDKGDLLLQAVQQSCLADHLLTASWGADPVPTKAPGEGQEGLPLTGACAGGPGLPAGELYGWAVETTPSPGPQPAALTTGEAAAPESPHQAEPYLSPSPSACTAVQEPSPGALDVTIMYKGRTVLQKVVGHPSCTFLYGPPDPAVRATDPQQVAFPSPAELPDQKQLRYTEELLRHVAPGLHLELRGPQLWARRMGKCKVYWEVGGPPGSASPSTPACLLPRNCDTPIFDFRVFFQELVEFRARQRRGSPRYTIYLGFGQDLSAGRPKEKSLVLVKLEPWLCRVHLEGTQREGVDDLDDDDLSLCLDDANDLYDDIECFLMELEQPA
Oligonucleotide	fitted relative affinity
GACGAACTGAGTCTCGAGAAGTGCTAG	-0.397 z-score
GACGGTTCGGGTTTCGGGACGTGCTAG	2.08 z-score
TCATCTATGTCTGTTTTACTGTGCTAG	2.07 z-score
GACGGTATCCTTCTGCTGACGTGCTAG	0.981 z-score
TAAGGTTTCGGGTTTCGGTTAGTGCTA	10.4 z-score
TTAGATCTCGGTTTCGATTAGTGCTAG	5.21 z-score
TTAGTACTGCTTATCCTTTAGTGCTAG	1.03 z-score
TCATTTATGCTTTCTTTAACTGTGCTA	1.78 z-score

Set 3 — technique: protein binding microarray; form: double-stranded DNA, one strand shown; matrix: in vitro; concentration: not given; reference: not given; reading: higher = stronger binding
Target: Histone acetyltransferase KAT6A, winged helix 1, GST fusion (KAT6A, Homo sapiens, UniProt Q92794, residues 1-85)
Setting: 8-mer, flanks averaged, mean of 2 arrays, mostly near background
Construct (chain): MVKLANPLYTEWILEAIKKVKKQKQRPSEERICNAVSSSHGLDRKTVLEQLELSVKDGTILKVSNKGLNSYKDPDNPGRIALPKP
Oligonucleotide	E-score
CGTGAATC	-0.0397
AGAAAGTG	-0.108
GCTCTCGA	-0.156
ATCTCTGA	-0.152
CCATCTAC	-0.0648
CGTACAAG	0.0579
ACTCAAAA	-0.128
CGAAGCCC	0.0384
GTAGGGAA	-0.0528
AAGGTTGC	0.0686
GGCACCTA	0.0798

Single results of other studies
Molecule	target	assay	system	setting	scale	endpoint	value
PhoQ, residues 284 288 289 292 302 303 NLMGRA	PhoP, residues 12 14 15 18 19 LYHSL (Escherichia coli, UniProt P23836)	Sort-seq, measured: YFP reporter	E. coli	PhoQ-PhoP variant library, together with: 10 µM Mg2+	reference: high Mg2+ state, higher = stronger signaling	fold induction	0.406

Some of these lines once more (set 1):
Variant	normalised enrichment score
T12A	0.377
F8A	0.705
P11A	0.108
